Measured values pooled from the literature.
Each numbered part is a random draw from the data of one study; scales do not carry over between parts.
UniProt P47898, sequence (whole entry, looked up): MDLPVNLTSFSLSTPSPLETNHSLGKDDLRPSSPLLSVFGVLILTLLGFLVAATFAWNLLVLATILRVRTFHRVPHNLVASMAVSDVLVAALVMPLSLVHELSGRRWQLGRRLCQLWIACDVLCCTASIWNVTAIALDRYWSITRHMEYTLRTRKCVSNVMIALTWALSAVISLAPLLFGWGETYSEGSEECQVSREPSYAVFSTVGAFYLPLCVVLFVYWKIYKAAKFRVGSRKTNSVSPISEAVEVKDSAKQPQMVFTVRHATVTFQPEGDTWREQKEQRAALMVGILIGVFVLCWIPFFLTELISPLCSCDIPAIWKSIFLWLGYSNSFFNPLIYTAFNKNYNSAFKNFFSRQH

Series 1
Host: human
Matrix: microsomes or S9
Tested at: 2 µM
Time: 0.5 h
`COc1ccc(OC)c2c1s/c(=N\C(=O)C(C)C)n2C` has a remaining compound of 0.152%.
`CCn1nc(C)cc1S(=O)(=O)NC1CCOC2(CCOCC2)C1` (centres unmarked) gave a remaining compound of 71.7%.
`CC1CC(C)C(C(=O)NCC(Nc2ccccc2)C(C)C)O1` (centres unmarked) gave a remaining compound of 1.34%.
`CS(=O)(=O)c1ccc(Nc2ccc3sc(C(=O)O)cc3c2)c(F)c1` gave a remaining compound of 95.6%.
`O=C1CC(c2cccs2)Cc2nc3[nH]nc(O)c3cc21` (centres unmarked) gave a remaining compound of > 100%.
For `CCOC(=O)c1c2ccc(N(CC)CC)cc2n2c(Cl)cccc12`, the remaining compound was 52.7%.
`Cc1nn(C)c2c1N(C(=O)OC(C)(C)C)CC(C)N2C(=O)c1cc(Cl)cc(Cl)c1` (centres unmarked) has a remaining compound of 23%.
The remaining compound of `CS(=O)(=O)c1ccc(Oc2cc(F)cc(C(=O)O)c2)c2c1[C@H](O)C(F)(F)C2` is reported as > 99.9%.
`NS(=O)(=O)C1(CNc2nccc3cccnc23)CCC1` gave a remaining compound of 89.2%.
The remaining compound of `Cc1noc2c1C(CC(C)C)C1=C(O)CC(C)(C)CC1=N2` (centres unmarked) is reported as 30.1%.
With `N#Cc1nccnc1OC1CCN(C(=O)c2ccc(N3CCOCC3)cc2)C1` (centres unmarked) the remaining compound was 76.9%.
`O=S(=O)(CCC1Cc2ccccc2C1)N1CCN(c2cccc(O)c2)CC1` has a remaining compound of 21.7%.
The remaining compound of `CC(C)OCCCNC(=O)c1ccc(C(C)(C)C)cc1` is reported as 23.1%.
The remaining compound of `Cc1ccc(C(=O)NNc2ccccn2)c(Nc2ccc3cn[nH]c3c2)n1` is reported as 87.8%.
The remaining compound of `O=C(CCCOc1ccccc1)Nc1ccccc1-c1ccccc1` is reported as < 1%.

Series 2
Target: Mitogen-activated protein kinase kinase kinase 9 (MAP3K9, Homo sapiens, UniProt P80192)
UniProt P80192, sequence (whole entry, looked up): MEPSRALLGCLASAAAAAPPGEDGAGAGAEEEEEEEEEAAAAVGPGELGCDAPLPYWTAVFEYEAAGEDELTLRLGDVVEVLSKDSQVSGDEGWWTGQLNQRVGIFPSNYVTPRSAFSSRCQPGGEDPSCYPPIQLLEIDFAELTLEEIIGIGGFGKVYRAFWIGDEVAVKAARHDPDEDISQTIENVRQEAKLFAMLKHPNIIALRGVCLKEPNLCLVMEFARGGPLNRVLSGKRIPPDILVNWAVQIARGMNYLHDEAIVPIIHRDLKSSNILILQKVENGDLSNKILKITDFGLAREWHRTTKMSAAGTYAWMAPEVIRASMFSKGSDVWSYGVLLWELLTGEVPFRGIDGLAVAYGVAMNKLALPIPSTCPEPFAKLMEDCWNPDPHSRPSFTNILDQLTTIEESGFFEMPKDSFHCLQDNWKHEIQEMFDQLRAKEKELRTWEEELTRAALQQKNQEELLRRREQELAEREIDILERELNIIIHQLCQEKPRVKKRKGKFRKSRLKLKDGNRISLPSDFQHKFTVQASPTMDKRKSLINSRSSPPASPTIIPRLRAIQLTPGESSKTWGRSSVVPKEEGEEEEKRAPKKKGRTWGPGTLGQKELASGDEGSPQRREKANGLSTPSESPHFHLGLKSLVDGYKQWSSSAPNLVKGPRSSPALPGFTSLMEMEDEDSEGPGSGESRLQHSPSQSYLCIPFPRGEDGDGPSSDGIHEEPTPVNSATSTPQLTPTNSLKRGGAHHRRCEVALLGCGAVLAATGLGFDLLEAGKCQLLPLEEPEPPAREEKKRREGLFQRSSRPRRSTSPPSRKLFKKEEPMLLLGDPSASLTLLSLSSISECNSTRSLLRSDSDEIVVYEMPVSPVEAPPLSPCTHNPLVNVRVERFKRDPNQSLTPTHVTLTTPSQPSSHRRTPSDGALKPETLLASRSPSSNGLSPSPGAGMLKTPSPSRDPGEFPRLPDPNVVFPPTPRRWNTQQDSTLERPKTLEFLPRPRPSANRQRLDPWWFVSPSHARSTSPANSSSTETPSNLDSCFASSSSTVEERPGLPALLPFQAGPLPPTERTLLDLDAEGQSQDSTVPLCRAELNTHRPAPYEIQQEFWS
Observed: enzyme activity
Mode: inhibitor
Tested at: 0.5 µM
Baseline: control
The remaining activity of `O=C1Nc2ccc(Br)cc2/C1=C/c1cc2c([nH]1)CCCC2` is reported as 53.4%.
With `CN(C)S(=O)(=O)c1ccc2c(c1)/C(=C/c1cc3c([nH]1)CCCC3)C(=O)N2` the remaining activity was 74.6%.
`N#Cc1cnc2cnc(NCc3cccnc3)cc2c1Nc1ccc(F)c(Cl)c1` has a remaining activity of 87.5%.
With `COc1cccc(-c2cc(=O)c3ccccc3o2)c1N` the remaining activity was 93.2%.
For `O=C1NC(=O)c2c1c1c3ccccc3[nH]c1n1cncc21`, the remaining activity was 72.5%.
`c1ccc2c(-c3ccncc3)c[nH]c2c1` has a remaining activity of 83.3%.
For `O=C1Nc2ccccc2/C1=C\c1c(Cl)[nH]c2ccccc12`, the remaining activity was 97.9%.
With `CCCCc1c(-c2ccc(OC)cc2)[nH]c2nccnc12` the remaining activity was 39.8%.
With `Cc1cc(Nc2cc(N3CCN(C)CC3)nc(Sc3ccc(NC(=O)C4CC4)cc3)n2)[nH]n1` the remaining activity was 38.7%.
The remaining activity of `CN1CCN(c2ccc3nc(-c4c(N)c5c(F)cccc5[nH]c4=O)[nH]c3c2)CC1` is reported as 52.4%.
For `CCCNC(=O)Nc1ccc(Oc2ncnc3cc(OC)c(OC)cc23)cc1Cl`, the remaining activity was 88.9%.
`O=Nc1c(-c2c(O)[nH]c3cc(Br)ccc23)[nH]c2ccccc12` gave a remaining activity of 9.21%.
The remaining activity of `O=C1Cc2c([nH]c3ccc(Br)cc23)-c2ccccc2N1` is reported as 64.6%.
For `COc1ccc2c(c1)c(C1=C(c3c[nH]c4ccccc34)C(=O)NC1=O)cn2CCCN(C)C`, the remaining activity was 57.6%.
`COc1ccc(COc2ccc(Cc3cnc(N)nc3N)cc2OC)cc1` has a remaining activity of 105%.
`c1ccc(-c2n[nH]c3c2oc2ccccc23)cc1` gave a remaining activity of 97.5%.
`Cc1ccc(S(=O)(=O)/C=C/C#N)cc1` has a remaining activity of 96.9%.
The remaining activity of `O=c1cc(N2CCOCC2)oc2c(-c3ccccc3)cccc12` is reported as 108%.
`O=C(c1cc2cc(O)ccc2[nH]1)c1cc2cc(O)ccc2[nH]1` has a remaining activity of 42.6%.

Series 3
Target: Eukaryotic initiation factor 4A-III (Homo sapiens, UniProt P38919)
UniProt P38919, sequence (whole entry, looked up): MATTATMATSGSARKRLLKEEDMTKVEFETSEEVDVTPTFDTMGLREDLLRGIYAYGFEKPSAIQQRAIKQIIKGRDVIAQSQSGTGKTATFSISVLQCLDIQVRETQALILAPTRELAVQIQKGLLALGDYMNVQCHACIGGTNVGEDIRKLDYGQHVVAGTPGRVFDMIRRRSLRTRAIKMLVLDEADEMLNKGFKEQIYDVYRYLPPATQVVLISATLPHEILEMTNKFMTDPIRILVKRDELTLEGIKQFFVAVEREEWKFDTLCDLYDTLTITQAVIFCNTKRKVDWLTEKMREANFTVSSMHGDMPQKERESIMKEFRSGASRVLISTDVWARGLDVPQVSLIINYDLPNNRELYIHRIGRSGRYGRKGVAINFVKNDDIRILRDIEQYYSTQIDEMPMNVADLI
Observed: RNA clamping
Technique: fluorescence polarization
Tested at: concentration not given
Together with: FAM-labelled poly r(AG)8 RNA
`C#CCOCCOCCNC(=O)CCCn1c(-c2ccccc2)nc2c(c1=O)[C@@H](c1ccccc1)[C@]1(c3ccc(OC)cc3)Oc3cc(OC)cc(OC)c3[C@]21O` — result for “fluorescence polarization change”: 17.6 mP.
For `C#CCCCOC(=O)/C=C/Cn1c(-c2ccccc2)nc2c(c1=O)[C@@H](c1ccccc1)[C@]1(c3ccc(OC)cc3)Oc3cc(OC)cc(OC)c3[C@]21O`, “fluorescence polarization change” read 5.2 mP.
`COc1ccc([C@@]23Oc4cc(OC)cc(OC)c4[C@]2(O)[C@H](O)[C@H](C(=O)c2ccco2)[C@H]3c2cccc(OC)c2)cc1` — result for “fluorescence polarization change”: 17.6 mP.
Under “fluorescence polarization change”, `COC(=O)[C@H]1[C@@H](O)[C@@]2(O)c3c(OC)cc(OC)cc3N(C)[C@@]2(c2ccc(Br)cc2)[C@@H]1c1ccccc1` is recorded as 5.9 mP.
`COC(=O)[C@@H]1[C@@H](c2ccccc2)[C@]2(c3ccc(OC)cc3)Oc3cc(OC)cc(OC)c3[C@@]23NC(c2csc(C)n2)=N[C@@]13O`: “fluorescence polarization change” 20.8 mP.
For `C#CCNC(=O)CCCn1c(-c2ccccc2)nc2c(c1=O)[C@@H](c1ccccc1)[C@]1(c3ccc(OC)cc3)Oc3cc(OC)cc(OC)c3[C@]21O`, “fluorescence polarization change” read 7 mP.
`COCCN[C@@]12C(=O)C[C@@H](c3ccccc3)[C@]1(c1ccc(OC)cc1)Oc1cc(OC)cc(OC)c12` — result for “fluorescence polarization change”: -1 mP.
`COC(=O)[C@@H]1[C@@H](c2ccccc2)[C@]2(c3ccc(OC)cc3)Oc3cc(OC)cc(OC)c3[C@@]23NC(C2CCC2)=N[C@@]13O`: “fluorescence polarization change” 24.9 mP.
`COC(=O)[C@@H]1[C@@H](c2ccccc2)[C@]2(c3ccc(OC)cc3)Oc3cc(OC)cc(OC)c3[C@@]23NC(C2CCCCC2)=N[C@@]13O`: “fluorescence polarization change” 43.2 mP.
`O[C@H]1C[C@@H](c2ccccc2)[C@]2(c3ccc(Cl)cc3)Oc3cc(OCCN4CCCC4)ccc3[C@]12O`: “fluorescence polarization change” 73.6 mP.
`COc1ccc([C@]23[C@H](c4ccccc4)C[C@@H](O)[C@@]2(O)c2c(OC)cccc2N3C)cc1`: “fluorescence polarization change” -5.8 mP.

Further values, each from its own experiment
`Cc1ccc2nc(CNCCCOc3ccccc3)cc(O)c2c1` has a Ki of 1 µM (NMDA receptor; receptor binding panel).
`C[C@H](c1cccc(C#N)c1)n1cc(Cl)cc(C(N)=O)c1=N` gave an inhibition of -5.97% (5-hydroxytryptamine receptor 5A (HTR5A, Homo sapiens, UniProt P47898); ligand displacement; 10 µM).
